Assay results pooled from the literature.
Parts stem from different laboratories: compare values within a part only. Positions count from the first letter of the parent shown.

Series 1
Target: RNA binding protein fox-1 homolog 2, RRM domain, GST-SBP tag (RBFOX2, Homo sapiens, UniProt O43251-10, residues 100-194)
Method: RNA Bind-n-Seq
Form: RNA
Matrix: in vitro
Tested at: 365 nM
Setting: natural RNA segment, single round, ends assumed
Reference: no-protein control
Direction: higher = stronger binding
Shared flanks, not repeated: GGGAGUUCUACAGUCCGACGAUC … UGGAAUUCUCGGGUGCCAA
Target sequence (chain): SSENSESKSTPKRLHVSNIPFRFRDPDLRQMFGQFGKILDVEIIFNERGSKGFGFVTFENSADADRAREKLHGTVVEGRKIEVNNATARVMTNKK
Sequence	RBNS enrichment (R)
UUCUCAUACCUUCACAUUUCUCAGUCCUGAAGAUUAAGGAAACAAAGCACCGCCUAUUUUGUAUAAAGUUUCUGAUUCCGUCUUGGCUGUCUAGUGCGUGCUAUCUGUGU	0.966
UGCUUCCCUUGACUGGGGAGACUGGAAGUCCUUACACUGGAGUUGCUGGGCCAACUGGUCACCCUCACACAGCACAGAGGGGGCUAGAGGGAACAGCCUCCUGGGUCUUC	0.362
GUGGGAACACAGAGGGAGUAGCCUGCGAAUGUGCCUCCAGUCAGUGGGAUACUUUCUGCACCACUCUGAGUGAUUGUUACCUUGUAACCACUAGUAAGCUUUGUUCAUGC	0.665
CUCUGAGCCGUGAUGCCAAAGGUUGCGACUCCUGACUCUGGAUAAUUUUUAGUUGCUCUUUGUUUUCUCUGCCGCACUUUCCUGGUGCCCCACGCUUUUCUCUCUUCCUU	1.12
CGUCAGCGGGCAUUAUUACCGUGUCUUGUAAAGGGUCGGUUUUGUUAUGCAACAUGCAGAAUGCUGUUUUUAGCCUUGUUUUACCAGAGUUGUUUUUUUUUUCAGUUAUU	1.47
UGUCCCUUGCACCCUAUGAUUAUUCUCAUGCUGCACUUACUGUUUACAUUUGUUUUAUUGUACAUAGGUUUGUAAACAUUAUUGCCUAAGAUAUUUGUAUAUAACUUGGG	0.404
UCAUUUCUAUUAUUCCAAUUUACUGAUAUGAACAAAUAGAAGGUCCGUGUGAGCAGACGCUCAGAACAGAGCCCUUGGCCCUUCGAGUUCUUUCUUACGAGUUUGCCGUU	0.356
CCAGAGCAACUUCCAGCAAGGCUGGUCUGGGUCUCUGCCCACCAGGCGGGGAGGUGUUCAAAGACAUCUCCCUCAGUGCGGAUUUAUAUAUAUAUUUUUCCUUCACUGUG	0.26
ACAAGACACCAAGUCCCUAGGCUGCACACACAUGUCAGGGGCUGCCCUGACAUGGCCUGGAGACAUUUUCCCCAUGGUGUUGGGGAUUAACAUUAGGCUCCUUGCUACUU	1.54
UGACAGUCCCCCAGAAACUUGGUGUGUCCUGGGCUGGACUGACACCCAGAAAGCUUACCUGCGAGCUUGGGGUUUGGCUUGAGUUCUCUUUUCCUUGAUUUCUCAGUAGG	0.542
AUUCUAAGUAAGAUAGUAAAUCUAAGGUCACUGAGCCAAAUCCUUUUCAAUAGGCAUAUAUUAACAGGCUGCUUAUUUUGGCGGAGGUUACAUAUGGAUGAAAAUGAAUC	0.298
UCUUACAGAGUAUCUUUAAAAGUGCCUUAGGGGAACCCUGUCCCUCCUAACAAGUGUAUCUCGAUUAAUAACCUGCCAGUCCCAGAUCACACAUCAUCAUCGAAGUCUUC	0.456

Series 2
Target: Histone acetyltransferase KAT6A, winged helix 2, GST fusion (KAT6A, Homo sapiens, UniProt Q92794, residues 85-181)
Method: protein binding microarray
Form: double-stranded DNA, one strand shown
Matrix: in vitro
Tested at: not given
Setting: 8-mer, flanks averaged, mean of 2 arrays, mostly near background
Reference: not given
Direction: higher = stronger binding
Residues (chain): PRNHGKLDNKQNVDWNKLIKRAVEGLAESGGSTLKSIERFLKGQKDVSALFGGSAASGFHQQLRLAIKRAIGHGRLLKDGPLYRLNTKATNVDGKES
Sequence	E-score
CGGCCGCA	0.238
ACAAGAAG	-0.0655
CACCCATC	-0.00486
TGCTAGCA	0.0125
ACCATTCT	-0.197
AACGACAT	0.0925
AATGTGCT	-0.0604
CCTAAGAA	0.063
GCGATCAA	0.0216
CATTACTC	-0.0153
ACGGGTGC	0.0187
AAGGTGCC	-0.00763
ATTTAGTA	0.151
ACCAGAGG	-0.114
CTTAGGGC	0.123

Series 3
Target: CCNA1, cyclin fold, Cln2 fusion (human)
Method: yeast growth competition, sequencing
Matrix: yeast
Setting: weak parent motif
Reference: not given
Direction: higher = stronger binding
Starting sequence: SCAPER docking peptide (human); SNARRSLNFGGST; partner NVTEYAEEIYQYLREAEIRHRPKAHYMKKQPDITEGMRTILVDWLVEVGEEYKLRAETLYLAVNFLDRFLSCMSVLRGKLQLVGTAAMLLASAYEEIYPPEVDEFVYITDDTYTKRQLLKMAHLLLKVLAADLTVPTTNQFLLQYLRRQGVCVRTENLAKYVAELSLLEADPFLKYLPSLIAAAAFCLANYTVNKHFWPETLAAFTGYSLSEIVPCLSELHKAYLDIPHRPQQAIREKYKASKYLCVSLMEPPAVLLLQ
Variant	normalised enrichment score
SNARRSLNFGGAT [S12A]	0.804
SNARRSLNFQGST [G10Q]	0.281
SNALRSLNFGGST [R4L]	-0.0701
SNPRRSLNFGGST [A3P]	0.589
SNARRSLNFRGST [G10R]	0.519
SNARRWLNFGGST [S6W]	0.526
SNANRSLNFGGST [R4N]	0.289
SNARRSLNFGGSV [T13V]	0.808
SNARRALNFGGST [S6A]	0.651
SNAYRSLNFGGST [R4Y]	0.218
SNARRSLNFGGKT [S12K]	0.471
SNARRSLNFGGTT [S12T]	0.646
SNARRSLNFDGST [G10D]	0.557
SNARRSLNFIGST [G10I]	0.389
SNARRSLNFGQST [G11Q]	0.706

Further values, each from its own experiment
Substance	target	test	system	setting	scale	quantity	result
PhoQ, residues 284 288 289 292 302 303 SNSSNI	PhoP, residues 12 14 15 18 19 NHTVL (Escherichia coli, UniProt P23836)	Sort-seq, refers to: YFP reporter	E. coli	PhoQ-PhoP variant library, together with: 10 µM Mg2+	reference: high Mg2+ state, higher = stronger signaling	fold induction	7.51

Repeated from above (series 2):
Sequence	E-score
ACGGGTGC	0.0187
AAGGTGCC	-0.00763
ATTTAGTA	0.151
